Measured values collected from several papers.
Values joined by “and” are separate records of one study, mostly repeats; a detail may differ. ± marks the error that the study gave.

| SMILES | cell line | assay | test system | setting | how to read | endpoint | value |
| --- | --- | --- | --- | --- | --- | --- | --- |
| C=C(CC(O)C(=O)O)C(=O)O (racemic) | K562 TET2/TET3 knockout | – | – | – | reference: parental K562 | fold lower IC50 | ~4 fold |
| N=C(N)Nc1ccc(-c2nc3ccc(-c4ccc5nc(-c6ccc(NC(=N)N)cc6)[nH]c5c4)cc3[nH]2)cc1 | wild-type myotubes | – | – | concentration not given | – | MBNL1 exon 5 inclusion | no effect |
| CC/C=C\C/C=C\C/C=C\C/C=C\C/C=C\C/C=C\CCC(=O)Nc1ccn(C2OC(CO)C(O)C2(F)F)c(=O)n1 (stereo not drawn) | TK-10 | NCI60 screen | – | – | – | CC50 | 74.9 µM |
| Cc1cccc(-c2cccc(C)n2)n1.[Cl-].[Cl-].[Ru+2].c1ccc(-c2ccccn2)nc1.c1ccc(-c2ccccn2)nc1 | A549 | cytotoxicity, resazurin | – | 72 h, light irradiation 5 min, λ>400 nm | – | EC50 | 8.3 ± 1.2 µM |
| Cc1ccc(Nc2ncc3c(n2)N(C)C(=O)N(c2cc(NC(=O)c4cc(-n5cnc(C)c5)cc(C(F)(F)F)c4)ccc2C)C3)cn1 | Hep3B | cell growth or viability, ATP luminescence | – | 72 h | – | GI50 | 0.153 µM |
| CCCCCCCCCCCCCCCC[P+](c1ccccc1)(c1ccccc1)c1ccccc1 | A-375 | cell growth or viability, MTT | – | 72 h | – | GI50 | 0.52 µM |
| CCN(CC)CCOc1ccc(-c2nnn(Cc3ccc(OC)cc3)c2N)cc1 | primary Nf2-deficient mouse tumour cells 184 | MTT or WST-8 | – | concentration not given, 3 days | – | cell proliferation | decreased |
| CSCC[C@H](NC(=O)[C@H](CCC(N)=O)NC(=O)[C@H](CCCCN)NC(=O)[C@H](CCCNC(=N)N)NC(=O)[C@H](Cc1ccc(O)cc1)NC(=O)[C@H](CCCNC(=N)N)NC(=O)[C@H](CO)NC(=O)[C@H](Cc1ccc(O)cc1)NC(=O)[C@H](CO)NC(=O)[C@H](CC(=O)O)NC(=O)[C@@H](NC(=O)[C@@H](N)Cc1ccccc1)[C@@H](C)O)C(=O)N[C@@H](C)C(=O)N[C@H](C(=O)N[C@@H](CCCCN)C(=O)N[C@@H](CCCCN)C(=O)N[C@@H](Cc1ccc(O)cc1)C(=O)N[C@@H](CC(C)C)C(=O)N[C@@H](C)C(=O)N[C@@H](C)C(=O)N[C@H](C(=O)N[C@@H](CC(C)C)C(=O)NCC(=O)N[C@@H](CCCCN)C(=O)N[C@@H](CCCNC(=N)N)C(=O)N[C@@H](Cc1ccc(O)cc1)C(=O)N[C@@H](CCCCN)C(=O)N[C@@H](CCC(N)=O)C(=O)N[C@@H](CCCNC(=N)N)C(=O)N[C@H](C(=O)N[C@@H](CCCCN)C(=O)N[C@@H](CC(N)=O)C(=O)N[C@@H](CCCCN)C(N)=O)C(C)C)C(C)C)C(C)C | differentiated PC-12 | antagonist, refers to: phospho-ERK | – | 1 µM, together with: CART 55-102 or 61-102 0.3 µM | – | CART-induced ERK activation | inhibited |
| C[C@@H](O)[C@H](NC(=O)[C@H](CCCCN)NC(=O)CCCC(=O)O)C(=O)NCC(=O)N[C@@H](CC(=O)O)C(=O)N[C@@H](CCC(=O)O)C(=O)N[C@@H](CCCCN)C(=O)N[C@@H](CCCCN)C(=O)NCC(=O)NCC(=O)N[C@@H](Cc1ccc(O)cc1)C(=O)NCC(=O)N[C@@H](CCCNC(=N)N)C(=O)N[C@@H](CCCCN)C(=O)N[C@@H](CCCCN)C(=O)N[C@@H](CCCNC(=N)N)C(=O)N[C@@H](CCCNC(=N)N)C(=O)N[C@@H](CCC(N)=O)C(=O)N[C@@H](CCCNC(=N)N)C(=O)N[C@@H](CCCNC(=N)N)C(=O)N[C@@H](CCCNC(=N)N)C(N)=O | Huh-7 | apoptosis, flow cytometry | – | 40 µM, 16 h | – | caspase-3 positive cells | 2.53% |
| C=C1C(=O)O[C@H]2[C@H]1CCC(C)=C1[C@H](OC(=O)c3ccc(C(F)(F)F)cc3)C[C@@](C)(O)[C@@H]12 | M9-ENL1 leukaemia cells | annexin V/7-AAD flow cytometry | – | 24 h, 5% human plasma | – | CC50 | 1.8 µM |
| CC(C)=CCC/C(C)=C/C[P+](c1ccccc1)(c1ccccc1)c1ccccc1 | T47D | cell growth or viability, MTT | – | 72 h | – | GI50 | 0.053 µM |
| C[C@H](NC(=O)[C@H](CCCNC(=N)N)NC(=O)[C@H](CCC(=O)O)NC(=O)[C@H](CCCNC(=N)N)NC(=O)[C@H](CCCNC(=N)N)NC(=O)[C@@H](NC(=O)[C@H](CCCNC(=N)N)NC(=O)[C@H](C)NC(=O)[C@H](CCCNC(=N)N)NC(=O)[C@H](CCC(=O)O)NC(=O)[C@@H](N)CCCNC(=N)N)[C@@H](C)O)C(=O)N[C@@H](CCCNC(=N)N)C(=O)N[C@H](C(=O)N[C@@H](CCCNC(=N)N)C(=O)N[C@@H](CCC(=O)O)C(=O)N[C@@H](CCCNC(=N)N)C(=O)N[C@@H](C)C(=O)N[C@@H](CCCNC(=N)N)C(=O)N[C@H](C(=O)N[C@@H](CCCNC(=N)N)C(=O)O)[C@@H](C)O)[C@@H](C)O | A-375 | RT-PCR and western blot, refers to: VEGF165 mRNA and protein | – | concentration not given | – | expression level | decreased |
| Cc1cc(C)c(N2CCN(c3c(C)cc(C)cc3C)C2=[Se])c(C)c1.[Cl][Au] | A2780 ADR | MTT | – | – | reference: A2780 ADR over A2780 | resistance factor | 1 |
| CNC(=O)c1cc(Oc2ccc(NC(=O)c3ccc(-c4cccc(COC(=O)CCC(=O)OC5OC6OC7(C)CCC8C(C)CCC(C5C)C68OO7)c4)cn3)cc2)ccn1 (stereo not drawn) | Huh-7 | PI staining, flow cytometry | – | concentration not given, 24 h | – | S phase cells | 39% |
| CC(C)CC(O)(CC(C)C)c1cn(C(=O)N2CCCC2)nn1 | mouse T-cells | SILAC proteomics, refers to: FBXO7 | – | 1 nM, 6 h, unit not given | reference: DMSO | protein level | 1.1 ± 0.04 |
| Cc1cc(C)c(-n2ccn(-c3c(C)cc(C)cc3C)c2=[Se])c(C)c1.[Cl][Au] | PSN1 | cell growth or viability, MTT | – | 72 h | – | IC50 | 1.1 µM |
| N=C(N)NCCC[C@H](N)C(=O)NCC(=O)N[C@@H](CCC(=O)O)C(=O)O | NIH 3T3 fibroblasts | – | peptide-functionalised PEG-glass | concentration not given, 4 h | – | cell spreading area | 554 ± 125 µm² |
| CCCCCCCCC[P+](c1ccccc1)(c1ccccc1)c1ccccc1 | T47D | cell growth or viability | – | 72 h | – | GI50 | 0.047 µM |

| SMILES | cell line | assay | test system | setting | how to read | endpoint | value |
| --- | --- | --- | --- | --- | --- | --- | --- |
| CC[C@H](C)[C@H](NC(=O)[C@H](Cc1ccccc1)NC(=O)[C@H](CC(=O)O)NC(=O)[C@H](CCCCN)NC(=O)[C@H](C)NC(=O)[C@H](CCCCN)NC(=O)[C@H](CC(N)=O)NC(=O)[C@H](CC(C)C)NC(=O)[C@H](Cc1c[nH]c2ccccc12)NC(=O)[C@H](CCC(=O)O)NC(=O)[C@H](CCCCN)NC(=O)[C@@H](NC(=O)CNC(=O)[C@H](C)N)[C@@H](C)O)C(=O)N[C@@H](CCCCN)C(=O)N[C@@H](CCC(=O)O)C(=O)N[C@@H](CCCCN)C(=O)NCC(=O)N[C@@H](CC(C)C)C(=O)NCC(=O)N[C@@H](CCSC)C(=O)N[C@@H](CC(C)C)C(=O)N[C@@H](CCCNC(=N)N)C(=O)N[C@@H](C)C(=O)N[C@@H](C)C(=O)N[C@@H](C)C(=O)N[C@@H](CC(N)=O)C(=O)N[C@@H](C)C(=O)N[C@@H](C)C(=O)N[C@@H](CC(C)C)C(=O)N[C@@H](CC(N)=O)C(=O)O | F11 cells | intracellular calcium, FLIPR | – | 0.1% BSA | – | EC50 | 12.1 µM and 12 to 25 µM |
| CN1C(=O)C2(Cc3ccc(CC45SSC(CO)(C(=O)N4C)N(C)C5=O)cc3)SSC1(CO)C(=O)N2C (racemic) | MCF7 | microarray, refers to: TP53, CREB1, ETS2, GTF2F1, TAF10, TAF13 | – | concentration not given, together with: deferoxamine or hypoxia | – | mRNA level | no effect |
| CC[C@H](C)[C@H](NC(=O)[C@H](CCC(=O)O)NC(=O)CNC(=O)[C@@H](NC(=O)[C@H](CC(C)C)NC(=O)[C@H](CC(C)C)NC(=O)[C@H](CC(C)C)NC(=O)[C@H](CC(C)C)NC(=O)[C@H](CS)NC(=O)[C@H](CO)NC(=O)[C@H](Cc1ccccc1)NC(=O)CNC(=O)[C@H](CCCNC(=N)N)NC(=O)[C@@H]1CCCN1C(=O)[C@H](C)NC(=O)[C@H](CCSC)NC(=O)CNC(=O)CNC(=O)[C@H](Cc1ccccc1)NC(=O)[C@H](CCCCN)NC(=O)[C@H](Cc1c(C)cc(O)cc1C)NC(=O)[C@H](N)CCCNC(=N)N)[C@@H](C)O)C(=O)N[C@@H](CC(=O)O)C(=O)N[C@@H](CC(C)C)C(=O)N1CCC[C@H]1C(=O)N[C@H](C(=O)N[C@@H](CCCCN)C(=O)N[C@@H](CCCNC(=N)N)C(=O)N[C@@H](CCCNC(=N)N)C(=O)N[C@@H](C)C(N)=O)C(C)C | HT-22 | western blot, refers to: p-STAT3 and STAT3 | – | 10 µM, 24 h, 37 °C, together with: amyloid beta 42 2 µM | reference: HNG | p-STAT3/STAT3 ratio | 1.3 fold |
| CC1=CC(C)=[N+]2C1=Cc1ccc(CCC(=O)NCC3C[NH][Pt]([Cl])([Cl])[NH]3)n1[B-]2(F)F (stereo not drawn) | CP20 cells | flow cytometry | – | 25 µM, 45 min | reference: parental KB 3-1 cells | accumulation reduction | 25% |
| CC[C@@H](C(=O)[C@@H](C)[C@@H](O)[C@H](C)[C@@H]1O[C@@H]([C@@H](CC)C(=O)O)CC[C@@H]1C)[C@H]1O[C@]2(C=C[C@H](NCc3ccc(Cl)cc3)[C@]3(CC[C@@](C)([C@H]4CC[C@](O)(CC)[C@H](C)O4)O3)O2)[C@H](C)C[C@@H]1C | HMLER CD24low/CD44high | cell viability, CellTiter-Blue | – | 72 h | reference: IC50 HMLER CD24high/CD44low over CD24low/CD44high | selectivity ratio | 11 |
| CCOC(=O)c1ccc(NC(=S)Nc2ccc3c(c2)C(C)(C)CC(C)(C)S3)cc1 | CAKI-1 | cell growth or viability | – | 48 h | – | EC50 | 7.28 µM |
| COc1ccc2cc1Oc1cc3c(cc1OC)CCN(C)C3Cc1ccc(cc1)Oc1c(O)c(OC)cc3c1C(C2)N(C)CC3 (stereo not drawn) | Huh-7 | – | – | – | reference: Huh-7 CC50 over INDO IC50 | selectivity index | 104 |
| CC[C@@]1(O)C(=O)OCc2c1cc1n(c2=O)Cc2cc3cc(OC(=O)CCCC(=O)NCC(=O)N[C@@H](Cc4ccccc4)C(=O)N[C@@H](Cc4ccccc4)C(=O)N[C@@H](Cc4ccc(OP(=O)(O)O)cc4)C(=O)NCC(=O)N[C@@H](CCC(=O)O)C(=O)N[C@@H](CCCNC(=N)N)C(=O)NCC(=O)N[C@@H](CC(=O)O)C(=O)O)ccc3nc2-1 | HepG2 spheroids | – | – | 100 µM, 7 days | reference: initial | spheroid volume | ~50% |
| COc1cc(C)cc2c1OCO2 | T47D | cell growth or viability, MTT | – | 72 h | – | GI50 | 12.5 µM |
| CC(C)[C@]12O[C@H]1[C@@H]1O[C@]13[C@]1(O[C@H]1C[C@H]1c4c(C(=O)c5ccccc5)oc(OC(=O)c5ccccc5)c4CC[C@@]13C)[C@@H]2O | MV4-11 | cell viability | – | 24 h | reference: compound over triptolide | IC50 ratio | 3.1 |
| C=CCc1cc(OC)c(OC)c(OC)c1OC | DU-145 | cell growth or viability, MTT | – | 72 h | – | GI50 | > 250 µM |
| C1N2CN3CN1CP(C2)C3.CC(C)OC(=O)C(n1cccn1)n1cccn1.F[P-](F)(F)(F)(F)F.[Cu+] | PSN1 | cell growth or viability, MTT | – | 72 h | – | IC50 | 30.1 µM |
| COc1cc(C)c(OC)c(OC)c1OC | T47D | cell growth or viability, MTT | – | 72 h | – | GI50 | > 250 µM |
| CC[C@H](C)[C@@H]1NC(=O)[C@H](Cc2c[nH]c3ccccc23)NC(=O)[C@H](CCCCCC(=O)NO)NC(=O)[C@H]2CCCCN2C1=O | iPSC-derived neural progenitor cells | western blot | – | 1 µM, 18 h | reference: vehicle | H3K9 acetylation | ~6.4 fold increase |
| CCCc1cc2c(c(OC)c1OC)OCO2 | A-375 | cell growth or viability, MTT | – | 72 h | – | GI50 | 109 µM |
| CC1(C)CC([n+]2cc([NH-])on2)CC(C)(C)N1O | primary human trabecular meshwork cells | cGMP level increase, enzyme immunoassay | – | 30 min | – | EC50 | 20.3 µM |
| COc1c(C)cc2c(c1OC)OCO2 | DU-145 | cell growth or viability, MTT | – | 72 h | – | GI50 | > 250 µM |
| [Cl][Au].[Se]=c1n(C2CCCCC2)ccn1C1CCCCC1 | PSN1 | cell growth or viability, MTT | – | 72 h | – | IC50 | 2.7 µM |
